Assay results of several laboratories.
Lines come from different studies, so protocols differ. ± gives the spread as reported.

SMILES | assay | test system | setting | half-life [h]
CN(C)C(=O)c1cc2cnc(Nc3ccc(N4CCNCC4)cn3)nc2n1C1CCCC1 |  | human, all patients, plasma | oral, estimated from accumulation ratio, 24 h dosing interval | 26.6 ± 14
Fc1ccc([C@@H]2CCNC[C@H]2COc2ccc3c(c2)OCO3)cc1 |  | human, CYP2D6 poor metabolizers | oral, 20 mg, steady state, geometric mean | 23
C=CC(=O)NC1CCN(c2ncc3ncnc(Nc4ccc(Oc5ccc6c(c5)ncn6C)c(C)c4)c3n2)CC1 |  | human, male, plasma | oral, 30 mg single dose, fasted, geometric mean | 36.3
CC#CC(=O)N1CC[C@@H](n2c(=O)n(-c3ccc(Oc4ccccc4)cc3)c3c(N)ncnc32)C1 |  | human, fasted, plasma | oral, 480 mg once daily, cycle 1 day 28 | 3.07 ± 0.486
C[C@H](Oc1ccc(Br)cc1-c1ccon1)C(=O)O | LC-MS/MS, non-compartmental | human, plasma | 400 mg once daily, day 1, multiple ascending dose, mean | 5.66
CCCCCCCCCCCCCCCC(=O)N[C@@H](CCC(=O)NCCCC[C@@H]1NC(=O)[C@H]([C@@H](C)CC)NC(=O)[C@@H](NC(=O)[C@@H]2CCCN2C(=O)[C@H](Cc2ccccc2)NC(=O)[C@H](Cc2c[nH]cn2)NC(=O)[C@@H](NC(=O)[C@H](CC(=O)O)NC(=O)CC(C)C)[C@@H](C)O)CSSC[C@@H](C(=O)N[C@@H](CCCCN)C(N)=O)NC(=O)CNC(=O)[C@H](CCCCN)NC(=O)[C@H](CO)NC(=O)[C@H](CCCNC(=N)N)NC(=O)[C@@H]2CCCN2C(=O)[C@H](CCC(=O)O)NC(=O)[C@H](Cc2ccccc2)NC1=O)C(=O)O |  | healthy human, plasma | subcutaneous, 20 mg, single dose, aqueous formulation | 33.5 ± 19.3
COc1ncc(-c2nc3c(n2C(C)C)[C@H](c2ccc(Cl)cc2)N(c2cc(Cl)cn(C)c2=O)C3=O)c(OC)n1 | LC-MS/MS, noncompartmental | human, plasma | oral, 45 mg, low-dose, median | 7.3
CNC(=O)n1ccc2cc(Oc3ccnc(NC(=O)c4ccc(C5CCN(CCO)CC5)cc4)c3)c(OCCOC)cc21 |  | healthy human, plasma | oral, 35 mg, geometric mean, alone | 29.4
CN(C(=O)C(C)(C)c1cc(C(F)(F)F)cc(C(F)(F)F)c1)c1cnc(N2C[C@H]3COCCN3C[C@H]2CO)cc1-c1ccc(F)cc1[14CH3] | measured: total radioactivity | human, plasma | oral, 120 mg | 46.3
CC(C)[C@H](N)C(=O)NCCCS(=O)(=O)O |  | human, plasma | oral, 340 mg twice daily days 8-13, once daily day 14, day 14, fed, capsule | 1.08
Cc1ccc(-c2cc(C(F)(F)F)nn2-c2ccc(S(N)(=O)=O)cc2)cc1 |  | human, plasma | oral | 9.2 ± 4.3
O=C(O)CCC(=O)O.[2H]C([2H])([2H])Oc1cc(C)c2[nH]ccc2c1CN1CC[C@@H](C2CC2)C[C@H]1c1ccc(C(=O)O)cc1 |  | human, plasma | 125 mg twice daily, day 10, multiple ascending dose, mean | 32.1
Cn1nnc2c(C(N)=O)ncn2c1=O |  | human patients, plasma | oral, 20 mg/m2, day 5, dose level DL3, median, added: talazoparib 600 µg/m2 | 1.6
NC(CO)(CO)CCc1ccc(Sc2cccc(OCc3ccccc3)c2)cc1Cl |  | human male, whole blood | oral, 3 mg, given alone | 115
Cc1nc(-c2ccc(OCC(C)C)c(C#N)c2)sc1C(=O)O |  | human | oral, 20 mg once daily, added: verinurad 0 mg | 7.12
CO[C@H]1C[C@@H]2CC[C@@H](C)[C@@](O)(O2)C(=O)C(=O)N2CCCC[C@H]2C(=O)O[C@H]([C@H](C)C[C@@H]2CC[C@@H](OC(=O)NCCOCCOCCOCCOCCOCCOCCOCCOCCC(=O)N3CCc4cc(Cn5nc(-c6ccc7oc(N)nc7c6)c6c(N)ncnc65)ccc4C3)[C@H](OC)C2)C[C@@H](O)[C@H](C)/C=C(\C)[C@@H](O)[C@@H](OC)C(=O)[C@H](C)C[C@H](C)/C=C/C=C/C=C/1C |  | human patients, plasma | intravenous, 10 mg, cycle 1 day 15, 2 h infusion | 4.1
C#C[C@]1(CO)O[C@@H](n2cnc3c(N)nc(F)nc32)C[C@@H]1O |  | human, plasma | oral, 100 mg, single dose, geometric mean | 58.8
COc1cc(C(=O)NC2CCN(C)CC2)c(F)cc1Nc1ncc(C(F)(F)F)c(Oc2cccc3c2C(=O)N(C)C3)n1 |  | human patients, plasma | oral, 300 mg single dose, geometric mean | 19.4
CC1(COc2ccc3c(c2)ncn3-c2ccc3cccc(N4CCC(N)CC4)c3n2)COC1 |  | human patients, recurrent/progressive HGG or DIPG, serum | oral, 220 mg/m^2, day 28, median | 6.65
Cc1nc2ccc(F)cc2n1-c1nc(N)c(F)c(Nc2ccc(C(F)(F)F)cc2)n1 |  | human patients, plasma | oral, 300 mg twice weekly, cycles 1 and 2 pooled | 9.25
Cn1c(=O)oc2ccc(-c3ccc(C[C@@H](C#N)NC(=O)[C@@H]4CNCCCO4)cc3)cc21 |  | human, normal renal function, plasma | oral, 25 mg single dose, mean | 39.1
CO[C@@H]1[C@H](OC(=O)N2CC(CCN3CCOCC3)C2)CC[C@]2(CO2)[C@H]1[C@@]1(C)O[C@@H]1CC=C(C)C |  | humans, plasma | subcutaneous, 0.6 mg twice weekly, fifth dose | 1.26 ± 0.55
Cn1cncc1[C@@](N)(c1ccc(Cl)cc1)c1ccc2c(c1)c(-c1cccc(Cl)c1)cc(=O)n2C | non-compartmental analysis | human, plasma | oral, 300 mg/m^2, median, expanded cohort, first cycle dose | 3.51
Cc1noc(C)c1-c1cc(C(O)(c2ccccn2)c2ccccn2)c2nc(C3CC3)[nH]c2c1 |  | human patients, plasma | oral, 0.6 mg, cycle 1 day 8, monotherapy | 13.1
C[C@@H]1CCO[C@H]2Cn3cc(C(=O)NCc4ccc(F)cc4F)c(=O)c(O)c3C(=O)N12 |  | human, haemodialysis patients, plasma | oral, fixed-dose combination | 9.5

SMILES | assay | test system | setting | half-life [h]
CC1=C(c2cccc(O)c2)[C@H](c2ccc(OCCN3CC(CF)C3)cc2)Oc2ccc(O)cc21 |  | human, plasma | oral, 1000 mg single dose | 17
COc1ccc([C@@H](O)c2cc(-c3ncnc4cc(N5CCOCC5)ccc34)c(F)cc2Cl)nn1 |  | human, plasma | oral, 100 mg twice daily, single dose, geometric mean | 2.37
C[C@H]1[C@@H](O)O[C@@H]2O[C@@]3(C)CC[C@H]4[C@H](C)CC[C@@H]1[C@@]24OO3 |  | human, both sexes, plasma | oral, dose not given, non-fixed combination | 1.38
C#C[C@]1(COP(=O)(O)OP(=O)(O)O)O[C@@H](n2cnc3c(N)nc(F)nc32)C[C@@H]1O | measured: islatravir triphosphate | human, PBMC | oral, 200 mg single dose | 155
CCN1CCN(Cc2ccc(Nc3ncc(F)c(-c4cc(F)c5nc(C)n(C(C)C)c5c4)n3)nc2)CC1 |  | healthy human, fasted | oral, 150 mg, tablet | 26.8
O=C(COc1ccc(Cl)cc1)NC12CC(c3nnc([C@H]4C[C@@H](OC(F)(F)F)C4)o3)(C1)C2 |  | healthy human volunteers fasted, plasma | oral, 800 mg single dose, geometric mean | 42.3
CCN1CCN(Cc2ccc(Nc3ncc(F)c(-c4cc(F)c5nc6n(c5c4)[C@H](C)CCC6)n3)nc2)CC1 |  | human, plasma | 100 mg single dose, mean | 42.4
NC(=O)c1[nH]cnc1N |  | human patients, plasma | IV infusion over 1 h, 1000 mg/m^2 DTIC, cycle 2 day 1, co-administered with co-drug | 3.75
[H]/N=C(/N)c1ccc(NCc2nc3cc(C(=O)N(CCC(=O)O)c4ccccn4)ccc3n2C)cc1 | measured: total dabigatran | human, plasma | oral, 75 mg dabigatran etexilate, given alone | 9.6 ± 1.66
CCOc1c([C@H](C)n2nc(C)c3c(N)ncnc32)cc(Cl)c(F)c1[C@@H]1CNC(=O)C1 |  | human patients, plasma | oral, 15 mg once daily, cycle 1 day 15, monotherapy | 11.5 ± 4.6
C=CC(=O)N(C)CCOc1c(N)ncnc1-c1cc(F)cc(NC(=O)c2ccc(C3CC3)cc2F)c1C |  | human, whole blood | oral, 30 mg, single ascending dose, median | 0.91
[H]/N=C(/N)c1ccc(NCc2nc3cc(C(=O)N(CCC(=O)O)c4ccccn4)ccc3n2C)cc1 |  | healthy human subjects, plasma | oral, 150 mg, dabigatran etexilate, arithmetic mean, added: fruquintinib 5 mg | 9.44
O=C(O)C[C@H](O)C[C@H](O)/C=C/c1c(C2CC2)nc2ccccc2c1-c1ccc(F)cc1 |  | OATP1B1/1B3 humanized mouse, plasma | oral, 5 mg/kg | 2.6
CC(C)NC(=O)COc1cccc(-c2nc(Nc3ccc4[nH]ncc4c3)c3ccccc3n2)c1 |  | human male, plasma | oral, 200 mg, day 5, fed, alone, geometric mean | ~6.2
NC(=S)NN=Cc1ncccc1N | LC-MS/MS | human, plasma |  | 1.4
CCN(CC)CCNC(=O)c1c(C)[nH]c(/C=C2\C(=O)Nc3ccc(F)cc32)c1C |  | human patients, plasma | oral, cycle 1 day 1 | 55.9
Cc1cc(OCCOCCC(F)(F)P(=O)(O)O)ccc1CCc1cnc2c(N)nc3cc(CCC(=O)O)ccc3c2c1 |  | human, serum | intratumoral, 400 µg every 2 weeks, cycle 2 day 15 | 27.2
N#CCNC(=O)c1ccc(-c2ccnc(Nc3ccc(N4CCOCC4)cc3)n2)cc1 |  | healthy human volunteers, plasma | oral, day 4, without rifampin | 5.74
C[C@H](O)c1cc(C(=O)N[C@@H](C)Cn2ccc(-c3ccc(C#N)c(Cl)c3)n2)n[nH]1 |  | human, fasted | oral, 300 mg 14C-darolutamide solution, geometric mean | 10.7
NCCCS(=O)(=O)O |  | human, plasma | oral, 171 mg once daily, day 1, capsule, fasted | 8.99
N#Cc1cc(NC(=O)[C@H]2c3ccccc3C(=O)N(CC(F)(F)F)[C@@H]2c2cccnc2)ccc1F |  | human, plasma | oral, 900 mg, median | 19.5
CCn1c(=O)c(-c2cc(NC(=O)Nc3ccccc3)c(F)cc2Br)cc2cnc(NC)cc21 |  | human, plasma | oral, 150 mg once daily, steady state | 9
CC(C)(C)OC[C@@H]1C(=O)NCCN1C(=O)C[C@H](N)Cc1cc(F)c(F)cc1F |  | human, male, plasma | oral, steady state, DP treatment | 25.5 ± 3.77
CC(C)(Sc1ccncc1-c1ccc(C#N)c2ccccc12)C(=O)O |  | human, plasma | oral, 2.5 mg once daily, added: febuxostat 10 mg | 14.8

Excerpt of the above:
SMILES | assay | test system | setting | half-life [h]
C#C[C@]1(COP(=O)(O)OP(=O)(O)O)O[C@@H](n2cnc3c(N)nc(F)nc32)C[C@@H]1O | measured: islatravir triphosphate | human, PBMC | oral, 200 mg single dose | 155
CCN1CCN(Cc2ccc(Nc3ncc(F)c(-c4cc(F)c5nc(C)n(C(C)C)c5c4)n3)nc2)CC1 |  | healthy human, fasted | oral, 150 mg, tablet | 26.8
O=C(COc1ccc(Cl)cc1)NC12CC(c3nnc([C@H]4C[C@@H](OC(F)(F)F)C4)o3)(C1)C2 |  | healthy human volunteers fasted, plasma | oral, 800 mg single dose, geometric mean | 42.3
